{"data": "Results from different studies", "note": "Each numbered part is a random draw from the data of one study; scales do not carry over between parts. Substitutions count along the parent as printed.", "UniProt Q13873, sequence (whole entry, looked up)": "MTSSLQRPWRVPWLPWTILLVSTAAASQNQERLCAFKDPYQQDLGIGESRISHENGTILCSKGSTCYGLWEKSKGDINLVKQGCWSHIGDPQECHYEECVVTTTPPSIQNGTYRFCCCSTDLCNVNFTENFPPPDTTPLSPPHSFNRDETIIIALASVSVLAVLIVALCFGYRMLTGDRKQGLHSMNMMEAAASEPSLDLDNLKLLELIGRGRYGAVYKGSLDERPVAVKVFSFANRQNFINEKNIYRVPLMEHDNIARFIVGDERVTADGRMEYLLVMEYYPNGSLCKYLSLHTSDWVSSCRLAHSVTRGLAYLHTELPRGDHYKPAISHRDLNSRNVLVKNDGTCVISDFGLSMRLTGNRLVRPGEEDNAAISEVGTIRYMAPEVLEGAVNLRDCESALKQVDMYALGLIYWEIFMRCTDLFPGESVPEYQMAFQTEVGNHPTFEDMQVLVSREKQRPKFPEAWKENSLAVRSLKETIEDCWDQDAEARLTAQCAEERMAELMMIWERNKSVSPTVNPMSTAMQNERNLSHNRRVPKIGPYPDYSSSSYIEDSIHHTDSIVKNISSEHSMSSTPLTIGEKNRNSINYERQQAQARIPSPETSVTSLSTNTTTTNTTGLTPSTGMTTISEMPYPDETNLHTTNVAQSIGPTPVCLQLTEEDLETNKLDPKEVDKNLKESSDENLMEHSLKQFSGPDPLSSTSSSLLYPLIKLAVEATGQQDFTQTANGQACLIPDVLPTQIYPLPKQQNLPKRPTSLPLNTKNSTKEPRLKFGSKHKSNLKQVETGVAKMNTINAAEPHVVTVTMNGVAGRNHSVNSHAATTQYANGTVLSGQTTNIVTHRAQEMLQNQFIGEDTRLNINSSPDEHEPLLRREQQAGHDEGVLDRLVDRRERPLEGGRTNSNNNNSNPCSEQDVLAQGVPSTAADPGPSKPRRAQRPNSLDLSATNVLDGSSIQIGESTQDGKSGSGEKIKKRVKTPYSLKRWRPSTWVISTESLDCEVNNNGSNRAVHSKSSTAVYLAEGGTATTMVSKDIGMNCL", "UniProt Q9H2G2, sequence (whole entry, looked up)": "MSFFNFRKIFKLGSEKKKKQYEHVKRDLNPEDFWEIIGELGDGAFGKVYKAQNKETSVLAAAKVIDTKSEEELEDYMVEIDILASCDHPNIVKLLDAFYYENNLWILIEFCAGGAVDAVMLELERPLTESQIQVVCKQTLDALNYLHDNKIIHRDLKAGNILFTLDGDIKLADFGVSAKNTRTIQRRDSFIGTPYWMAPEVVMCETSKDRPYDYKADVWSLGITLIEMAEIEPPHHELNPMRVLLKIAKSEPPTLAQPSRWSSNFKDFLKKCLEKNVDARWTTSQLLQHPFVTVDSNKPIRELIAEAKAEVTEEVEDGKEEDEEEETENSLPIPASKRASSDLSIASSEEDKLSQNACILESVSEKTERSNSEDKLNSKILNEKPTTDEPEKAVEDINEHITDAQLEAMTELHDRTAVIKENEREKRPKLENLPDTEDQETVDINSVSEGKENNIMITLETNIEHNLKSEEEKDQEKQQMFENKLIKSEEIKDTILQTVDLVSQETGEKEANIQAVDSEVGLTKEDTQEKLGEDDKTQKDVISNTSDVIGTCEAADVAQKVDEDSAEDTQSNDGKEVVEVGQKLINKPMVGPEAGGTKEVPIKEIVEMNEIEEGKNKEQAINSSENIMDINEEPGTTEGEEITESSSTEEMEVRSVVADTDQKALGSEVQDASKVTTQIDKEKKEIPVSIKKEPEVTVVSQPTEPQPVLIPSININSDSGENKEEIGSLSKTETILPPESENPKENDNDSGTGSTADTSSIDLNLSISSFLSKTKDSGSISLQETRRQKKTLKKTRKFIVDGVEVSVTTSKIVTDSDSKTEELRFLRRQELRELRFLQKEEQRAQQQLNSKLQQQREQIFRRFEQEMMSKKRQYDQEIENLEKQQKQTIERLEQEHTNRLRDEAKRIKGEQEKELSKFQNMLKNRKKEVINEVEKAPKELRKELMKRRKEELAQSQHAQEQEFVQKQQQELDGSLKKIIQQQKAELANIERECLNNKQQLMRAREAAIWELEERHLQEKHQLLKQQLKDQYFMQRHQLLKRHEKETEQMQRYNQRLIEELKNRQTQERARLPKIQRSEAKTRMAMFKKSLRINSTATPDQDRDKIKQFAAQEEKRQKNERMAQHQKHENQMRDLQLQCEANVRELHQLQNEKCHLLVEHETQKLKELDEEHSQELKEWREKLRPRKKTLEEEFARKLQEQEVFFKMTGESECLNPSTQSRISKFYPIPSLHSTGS", "UniProt Q13464, sequence (whole entry, looked up)": "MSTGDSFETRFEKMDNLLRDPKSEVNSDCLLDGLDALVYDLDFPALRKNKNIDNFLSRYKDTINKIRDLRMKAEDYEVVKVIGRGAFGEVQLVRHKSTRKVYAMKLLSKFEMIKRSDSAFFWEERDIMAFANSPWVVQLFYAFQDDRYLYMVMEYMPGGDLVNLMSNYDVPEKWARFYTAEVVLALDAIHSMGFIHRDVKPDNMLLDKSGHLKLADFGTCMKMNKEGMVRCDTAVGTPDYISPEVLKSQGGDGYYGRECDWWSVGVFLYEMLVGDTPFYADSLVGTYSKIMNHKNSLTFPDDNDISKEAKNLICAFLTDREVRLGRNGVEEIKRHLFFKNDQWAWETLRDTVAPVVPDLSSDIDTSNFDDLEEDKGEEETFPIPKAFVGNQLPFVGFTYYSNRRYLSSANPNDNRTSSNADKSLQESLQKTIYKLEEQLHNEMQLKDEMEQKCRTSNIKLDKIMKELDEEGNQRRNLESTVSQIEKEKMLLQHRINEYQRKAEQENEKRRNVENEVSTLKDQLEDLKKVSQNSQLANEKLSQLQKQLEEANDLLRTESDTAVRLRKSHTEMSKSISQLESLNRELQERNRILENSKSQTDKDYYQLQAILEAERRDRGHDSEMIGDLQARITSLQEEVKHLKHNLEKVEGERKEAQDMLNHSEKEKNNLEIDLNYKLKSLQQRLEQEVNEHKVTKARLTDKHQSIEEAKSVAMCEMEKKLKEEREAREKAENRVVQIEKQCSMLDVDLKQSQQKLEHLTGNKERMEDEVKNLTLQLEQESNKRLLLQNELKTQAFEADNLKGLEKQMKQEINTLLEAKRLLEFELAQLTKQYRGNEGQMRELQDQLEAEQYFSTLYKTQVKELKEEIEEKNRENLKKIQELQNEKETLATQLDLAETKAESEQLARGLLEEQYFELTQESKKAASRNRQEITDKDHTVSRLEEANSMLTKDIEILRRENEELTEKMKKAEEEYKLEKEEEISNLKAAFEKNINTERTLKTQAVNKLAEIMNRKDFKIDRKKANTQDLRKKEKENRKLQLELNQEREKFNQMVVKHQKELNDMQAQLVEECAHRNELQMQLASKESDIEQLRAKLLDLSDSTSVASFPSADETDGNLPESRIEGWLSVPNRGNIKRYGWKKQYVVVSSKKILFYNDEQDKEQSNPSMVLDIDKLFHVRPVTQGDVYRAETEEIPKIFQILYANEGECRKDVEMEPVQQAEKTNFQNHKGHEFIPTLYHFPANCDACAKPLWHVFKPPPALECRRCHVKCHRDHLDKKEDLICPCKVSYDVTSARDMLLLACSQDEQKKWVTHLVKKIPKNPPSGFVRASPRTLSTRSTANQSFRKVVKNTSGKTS", "UniProt Q13237, sequence (whole entry, looked up)": "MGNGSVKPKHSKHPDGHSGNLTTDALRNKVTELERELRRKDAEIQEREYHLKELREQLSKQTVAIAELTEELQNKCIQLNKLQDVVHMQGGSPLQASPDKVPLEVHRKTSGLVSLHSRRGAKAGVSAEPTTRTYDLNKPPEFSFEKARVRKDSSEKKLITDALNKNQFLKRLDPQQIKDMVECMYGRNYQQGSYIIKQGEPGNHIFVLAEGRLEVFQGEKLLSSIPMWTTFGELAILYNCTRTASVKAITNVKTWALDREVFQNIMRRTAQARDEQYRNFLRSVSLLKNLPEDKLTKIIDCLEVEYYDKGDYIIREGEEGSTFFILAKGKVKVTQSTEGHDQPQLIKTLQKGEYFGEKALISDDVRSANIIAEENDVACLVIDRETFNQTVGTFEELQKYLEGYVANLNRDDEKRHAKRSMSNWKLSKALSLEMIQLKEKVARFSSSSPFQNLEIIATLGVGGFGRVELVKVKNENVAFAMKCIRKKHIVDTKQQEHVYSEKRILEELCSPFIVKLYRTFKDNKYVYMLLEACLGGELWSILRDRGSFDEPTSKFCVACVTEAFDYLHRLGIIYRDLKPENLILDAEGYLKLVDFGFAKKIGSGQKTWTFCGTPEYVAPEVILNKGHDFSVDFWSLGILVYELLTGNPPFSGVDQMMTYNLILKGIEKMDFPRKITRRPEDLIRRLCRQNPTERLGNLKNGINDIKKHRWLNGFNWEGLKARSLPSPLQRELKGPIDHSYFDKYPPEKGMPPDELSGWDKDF", "UniProt P42681, sequence (whole entry, looked up)": "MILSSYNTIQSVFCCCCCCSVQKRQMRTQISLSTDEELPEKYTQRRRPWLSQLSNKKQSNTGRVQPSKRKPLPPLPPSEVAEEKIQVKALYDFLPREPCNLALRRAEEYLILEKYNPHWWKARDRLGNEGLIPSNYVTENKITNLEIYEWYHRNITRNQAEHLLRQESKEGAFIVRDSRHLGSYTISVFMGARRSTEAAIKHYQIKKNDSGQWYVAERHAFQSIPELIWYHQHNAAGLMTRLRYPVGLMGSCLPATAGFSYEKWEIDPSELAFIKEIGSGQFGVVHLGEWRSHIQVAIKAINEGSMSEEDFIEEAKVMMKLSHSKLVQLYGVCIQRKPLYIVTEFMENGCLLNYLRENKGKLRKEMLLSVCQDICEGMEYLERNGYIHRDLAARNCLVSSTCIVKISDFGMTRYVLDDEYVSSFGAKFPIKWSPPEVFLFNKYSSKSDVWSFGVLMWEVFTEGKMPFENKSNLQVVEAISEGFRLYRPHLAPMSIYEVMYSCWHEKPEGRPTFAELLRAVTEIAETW"}
{"data": "Set 1", "target": "MAFG, bZIP domain (human)", "technique": "DHFR protein complementation", "matrix": "yeast", "setting": "single substitutions, most at no-binding floor", "baseline": "wild-type JUN-FOS pair", "reading": "higher = stronger binding", "starting sequence": "JUN, bZIP domain (human); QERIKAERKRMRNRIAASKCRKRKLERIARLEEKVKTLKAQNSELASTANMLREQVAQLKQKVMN; partner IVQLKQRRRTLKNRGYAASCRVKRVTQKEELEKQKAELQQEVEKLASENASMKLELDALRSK"}
{"Change": "K34V", "binding fitness": "-1.46 natural log"}
{"Change": "R30S", "binding fitness": "-1.36 natural log"}
{"Change": "S43F", "binding fitness": "-1.19 natural log"}
{"Change": "E44Y", "binding fitness": "-1.55 natural log"}
{"Change": "E33D", "binding fitness": "-1.14 natural log"}
{"Change": "A40M", "binding fitness": "-1.54 natural log"}
{"Change": "Q41G", "binding fitness": "-1.43 natural log"}
{"Change": "A49G", "binding fitness": "-1.4 natural log"}
{"data": "Set 2", "Compound": "CCC(=O)N[C@H]1CC[C@@H](C(=O)N(C)c2ccc(-c3nc4ccccc4o3)cc2)C1", "effect on": "cell-free assay", "technique": "competition with immobilised ligand", "tested at": "1 µM"}
{"target": "Dual specificity tyrosine-phosphorylation-regulated kinase 2 (DYRK2, Homo sapiens, UniProt Q92630)", "remaining binding [%]": 87}
{"target": "Tyrosine-protein kinase JAK1, JH1 (JAK1, Homo sapiens, UniProt P23458)", "remaining binding [%]": 100}
{"target": "STE20-like serine/threonine-protein kinase (SLK, Homo sapiens, UniProt Q9H2G2)", "remaining binding [%]": 92}
{"target": "Bone morphogenetic protein receptor type-2 (BMPR2, Homo sapiens, UniProt Q13873)", "remaining binding [%]": 98}
{"target": "Interleukin-1 receptor-associated kinase 1 (IRAK1, Homo sapiens, UniProt P51617)", "remaining binding [%]": 83}
{"target": "Phosphatidylinositol 3-kinase C2 domain-containing subunit gamma (PIK3C2G, Homo sapiens, UniProt O75747)", "remaining binding [%]": 86}
{"target": "Mast/stem cell growth factor receptor Kit (KIT, Homo sapiens, UniProt P10721, V559D)", "remaining binding [%]": 94}
{"target": "Serine/threonine-protein kinase D1 (PRKD1, Homo sapiens, UniProt Q15139)", "remaining binding [%]": 100}
{"target": "NUAK family SNF1-like kinase 1 (NUAK1, Homo sapiens, UniProt O60285)", "remaining binding [%]": 100}
{"target": "Tyrosine-protein kinase TXK (TXK, Homo sapiens, UniProt P42681)", "remaining binding [%]": 100}
{"target": "Ribosomal protein S6 kinase alpha-1, C-terminal kinase domain (RPS6KA1, Homo sapiens, UniProt Q15418)", "remaining binding [%]": 99}
{"target": "Casein kinase II subunit alpha' (CSNK2A2, Homo sapiens, UniProt P19784)", "remaining binding [%]": 100}
{"target": "STE20/SPS1-related proline-alanine-rich protein kinase (STK39, Homo sapiens, UniProt Q9UEW8)", "remaining binding [%]": 100}
{"target": "Protein-tyrosine kinase 2-beta (PTK2B, Homo sapiens, UniProt Q14289)", "remaining binding [%]": 100}
{"data": "Set 3", "target": "PABPC1L2, full length, GST fusion (mouse, UniProt A0ABA7IW68)", "technique": "RNAcompete", "molecule type": "RNA", "matrix": "in vitro", "tested at": "20 nM", "setting": "7-mer, probes averaged, single round", "baseline": "mean of 7-mers", "reading": "higher = stronger binding", "Target sequence (chain)": "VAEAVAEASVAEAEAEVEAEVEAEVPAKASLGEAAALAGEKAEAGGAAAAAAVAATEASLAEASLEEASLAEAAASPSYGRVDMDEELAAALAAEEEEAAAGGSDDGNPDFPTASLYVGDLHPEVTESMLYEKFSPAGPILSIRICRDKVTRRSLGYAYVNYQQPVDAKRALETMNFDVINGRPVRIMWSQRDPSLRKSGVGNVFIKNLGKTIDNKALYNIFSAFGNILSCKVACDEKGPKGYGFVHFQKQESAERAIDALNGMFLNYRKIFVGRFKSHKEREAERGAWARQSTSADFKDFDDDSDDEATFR"}
{"Sequence": "UAAACGU", "7-mer Z-score": 0.22}
{"Sequence": "ACAAAGU", "7-mer Z-score": 0.979}
{"Sequence": "GCCCCAA", "7-mer Z-score": -0.159}
{"Sequence": "AAAUAGA", "7-mer Z-score": 3.06}
{"Sequence": "UUACCUU", "7-mer Z-score": -0.331}
{"Sequence": "AACCGAA", "7-mer Z-score": 0.122}
{"Sequence": "CUUUACA", "7-mer Z-score": -0.0609}
{"Sequence": "GACAUCC", "7-mer Z-score": -0.204}
{"data": "Set 4", "SMILES": "O=C(O)/C=C/c1cc(Br)c(Br)c(Br)c1Br", "effect on": "enzyme activity", "action": "inhibitor", "tested at": "0.5 µM", "baseline": "control"}
{"target": "cGMP-dependent protein kinase 2 (PRKG2, Homo sapiens, UniProt Q13237)", "remaining activity [%]": 80.3}
{"target": "Dual specificity mitogen-activated protein kinase kinase 1 (MAP2K1, Homo sapiens, UniProt Q02750)", "remaining activity [%]": 95.8}
{"target": "Serine/threonine-protein kinase DCLK2 (DCLK2, Homo sapiens, UniProt Q8N568)", "remaining activity [%]": 94.8}
{"target": "Dual specificity protein kinase CLK3 (CLK3, Homo sapiens, UniProt P49761)", "remaining activity [%]": 96.1}
{"target": "MAP/microtubule affinity-regulating kinase 4 (MARK4, Homo sapiens, UniProt Q96L34)", "remaining activity [%]": 93.1}
{"target": "Discoidin domain-containing receptor 2 (DDR2, Homo sapiens, UniProt Q16832)", "remaining activity [%]": 94.3}
{"target": "Rho-associated protein kinase 1 (ROCK1, Homo sapiens, UniProt Q13464)", "remaining activity [%]": 97.6}
{"target": "Misshapen-like kinase 1 (MINK1, Homo sapiens, UniProt Q8N4C8)", "remaining activity [%]": 96}
{"target": "Calcium/calmodulin-dependent protein kinase type 1B (PNCK, Homo sapiens, UniProt Q6P2M8)", "remaining activity [%]": 95.1}
{"target": "Vascular endothelial growth factor receptor 2 (KDR, Homo sapiens, UniProt P35968)", "remaining activity [%]": 90.1}
{"target": "Serine/threonine-protein kinase MRCK beta (CDC42BPB, Homo sapiens, UniProt Q9Y5S2)", "remaining activity [%]": 97.4}
{"target": "G protein-coupled receptor kinase 4 (GRK4, Homo sapiens, UniProt P32298)", "remaining activity [%]": 101}
{"target": "Cyclin-dependent kinase 1, with cyclin A (CDK1, Homo sapiens, UniProt P06493)", "remaining activity [%]": 88.6}
{"note": "For quick reference, copied from above (set 3):"}
{"Sequence": "UUACCUU", "7-mer Z-score": -0.331}
{"Sequence": "AACCGAA", "7-mer Z-score": 0.122}
